Published values pooled from the literature.
Each numbered part is a random draw from the data of one study; scales do not carry over between parts.

Series 1 — technique: RNA Bind-n-Seq; molecule type: RNA; sample: in vitro; tested at: 365 nM; relative to: no-protein control; direction: higher = stronger binding
Target: RNA binding protein fox-1 homolog 2, RRM domain, GST-SBP tag (RBFOX2, Homo sapiens, UniProt O43251-10, residues 100-194)
Setting: natural RNA segment, single round, ends assumed
Construct (chain): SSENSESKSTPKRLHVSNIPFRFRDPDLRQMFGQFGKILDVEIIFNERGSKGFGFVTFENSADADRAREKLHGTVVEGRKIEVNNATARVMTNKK
Strand	RBNS enrichment (R)
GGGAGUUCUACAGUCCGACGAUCUUUGUUUGGUAACUGUUGAGGAAUAAAGGCUUUUUAACCCAUUUUUGAAGAUGGUGAAGUUUGGAGAACAAAUUUUAAAACCAUCAGUCAGAUGAGAUUUUUCUAGAUUGUGGAAUUCUCGGGUGCCAA	0.709
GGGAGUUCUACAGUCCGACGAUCGGUCAUUUUCUGAUUCUUGUUGUUGGGAGUCAAUAUAGCAUGCGUCACCAGUGUUUGGUACCCAAGUCGUUCCAGUGGGAACAAUGUCUGUUUGAGUAAACUAAGACUGAUGGAAUUCUCGGGUGCCAA	13.6
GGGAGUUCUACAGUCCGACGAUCAGUUUUUCUUACGACUCAGACAGGUGGGAUGGACAGACAGGUGCAUGUUACUGCGUUCUGUGUCGGAAAGUAUAGUAUGCUCUAAGCAGUAGGCCUCUUGACUUUCUUACUGGAAUUCUCGGGUGCCAA	0.776
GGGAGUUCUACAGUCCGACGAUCUCUUAAGCCUUAUUCUUCAACUAAAAGAUGAGGAUUAAGAGCAAGAAGUUGGGGGGGAUGUGAAAAUAAUUUUAUGAGGUUGUCUAAAAUAAAGAGUAGUUUCUUAUCCUUGGAAUUCUCGGGUGCCAA	0.397
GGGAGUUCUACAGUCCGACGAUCAGACUCCUUUGUGCUGGAACCUGGGCUCCUCCAGCUGCCAGGCAGGAGUCGGUAGGACUGUGCCUGUGCCUCCCUCAGCGGGGCCCUGGGCGGGGUUCCAAGGCCUGCGAUGGAAUUCUCGGGUGCCAA	0.373
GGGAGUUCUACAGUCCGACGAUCAAACCCAGCACAUAAGUAUCUGCGUGGUCUAGCCUUUCAUCUCCGUAACAAGCCAGGGGACUCUUGGCCAAAAGAAAGAAAGGGAAGUUGCACUAGGGCUUGUCCGUCCAUGGAAUUCUCGGGUGCCAA	0.392
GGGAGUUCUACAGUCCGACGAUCUUUUCAAUAAUUAGGUCUAAGUGGAGUUUUAAGGUUACUGAUGACUUACAAAUAAUGGGCUCUGAUUGGGCAAUACUCAUUUGAGUUCCUUCCAUUUGACCUAAUUUAACUGGAAUUCUCGGGUGCCAA	0.326
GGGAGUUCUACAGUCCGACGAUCGCCUAGCAGCAUGUGUUAGCCAAAGUCUUCCUCCUUGUUUUGAGAAGACUCCAGGACAGGACAGGCAAAUUCAUGGUAUGUAUGCAGUUGCUGCUCCUGCUUCACCUGUGUGGAAUUCUCGGGUGCCAA	1.26
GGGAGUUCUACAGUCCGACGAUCAGCAGUCCAGUCUAUAGGUGCUCUACUUAGCAUUCUUUUCAUGUGCUCCUGGUCUCUGUCUCACUCACCUACUUUCUACUACAUCCAACUCAACUCCCUGACACCCUAUCUGGAAUUCUCGGGUGCCAA	1.32

Series 2 — technique: aptamer microarray, sandwich; molecule type: DNA with 2'F-ANA; sample: in vitro; tested at: 200 nM; added: Cy3 exosite-II aptamer, 400 nM; direction: higher = stronger binding; strand: GGTTGGTGTGGTTGG
Target: Prothrombin, mature alpha-thrombin (F2, Homo sapiens, UniProt P00734)
Setting: whole 15-mer aptamer, many near background
Modification	mean fluorescence intensity [a.u.]
2'F-ANA at 2 3 7 8 9	846
2'F-ANA at 1 3 6 7 8 12 13 15	445
2'F-ANA at 1 5 6 8 12	125
2'F-ANA at 2 3 4 6 8 9 11 12 14	257
2'F-ANA at 1 4 5 7 8 11 13 14	44.4
2'F-ANA at 1 2 3 4 8 9 15	190
2'F-ANA at 3 7 10 11 12 13 14 15	449
2'F-ANA at 1 3 7 9 12 13 14 15	110
2'F-ANA at 1 8 9 10 12 15	72.7
2'F-ANA at 1 4 5 7 8 15	67.3
2'F-ANA at 1 3 4 5 6 7 10 12 13 14 15	46.7
2'F-ANA at 4 5 7 8 9 12 14 15	50
2'F-ANA at 4 5 6 11 13 14 15	43.8
2'F-ANA at 2 3 4 6 7 9 10 12 13	207
2'F-ANA at 1 3 8 9 14	96.5
2'F-ANA at 1 2 3 5 8 9 10 12 15	51.7
2'F-ANA at 1 2 3 4 5 7 11 13 15	53.6
2'F-ANA at 2 3 4 6 10 11	229
2'F-ANA at 1 3 5 6 8 9 11 13	58.4
2'F-ANA at 5 6 8 9 10 13 14 15	51.7
2'F-ANA at 2 3 4 5 6 7 8 9 11 12 14 15	62.8
2'F-ANA at 1 4 5 6 12 15	91.3

Series 3 — technique: RNA Bind-n-Seq; molecule type: RNA; sample: in vitro; tested at: 200 nM; setting: whole 134-nt RNA, ends assumed; added: 150 mM LiCl; relative to: input library; direction: higher = stronger binding; each molecule: 7-deaza-guanosine replaces G
Target: Ras GTPase-activating protein-binding protein 1, full length (G3BP1, Homo sapiens, UniProt Q13283)
UniProt Q13283, sequence (whole entry, looked up): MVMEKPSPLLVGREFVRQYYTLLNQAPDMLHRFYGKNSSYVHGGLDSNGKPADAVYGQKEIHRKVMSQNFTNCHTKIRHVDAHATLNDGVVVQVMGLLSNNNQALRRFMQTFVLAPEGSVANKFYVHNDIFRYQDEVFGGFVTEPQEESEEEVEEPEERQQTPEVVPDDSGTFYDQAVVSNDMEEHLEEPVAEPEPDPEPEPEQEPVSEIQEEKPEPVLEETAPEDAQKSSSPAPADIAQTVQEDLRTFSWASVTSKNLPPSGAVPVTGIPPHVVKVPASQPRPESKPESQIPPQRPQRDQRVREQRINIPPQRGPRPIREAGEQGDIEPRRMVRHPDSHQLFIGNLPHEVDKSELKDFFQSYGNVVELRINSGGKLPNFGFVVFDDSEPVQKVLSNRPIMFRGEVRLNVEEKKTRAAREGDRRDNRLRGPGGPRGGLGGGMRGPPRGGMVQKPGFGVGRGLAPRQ
Strand	log2 enrichment
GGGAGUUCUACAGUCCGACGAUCUAACUUUAGAGGAGGAUCUGAUGGAUAUGGCAGUGGACGUGGAUUUGGGGAUGGCUACAAUGGGUAUGGAGGAGGACCUGGAGGUGGCAAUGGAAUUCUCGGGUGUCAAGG	-0.158
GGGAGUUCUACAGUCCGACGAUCCCUGUGCUACACAUCGUAUGUACCGAAUCGGGGUUUUUUUGGGGUGGGGUUUUUUUGGGGAAAGUAUUAUGUUACGCCGUUCGGAUCUGCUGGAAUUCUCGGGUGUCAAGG	0.0251
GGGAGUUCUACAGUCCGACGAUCGCAGGAAGUAAAAACAAAUGGAAAUGCUUCGGAUAGUGGCAGGGGUGGGGGUUGCUAAGGAAAGGGUGGGAUGGGAGUGGGCAAAGAGUUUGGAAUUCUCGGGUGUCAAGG	0.29
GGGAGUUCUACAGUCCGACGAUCGUCCUGUGCUACACAUCGUAUGUACCGAAUCGGGGUUUUUGGUUUUUGGGUUUUUGGGAAAGUAUUAUGUUACGCCGUUCGGAUCUGCACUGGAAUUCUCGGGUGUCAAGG	-0.418
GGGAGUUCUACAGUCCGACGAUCGUCCUGUGCUACACAUCGUAUGUACCGAAUCGGAAAAAAAGGUUUUUGGUUUUUUUGGAAAGUAUUAUGUUACGCCGUUCGGAUCUGCACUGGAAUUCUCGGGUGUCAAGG	-2.08
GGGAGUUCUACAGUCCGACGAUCUGGGAGGUGGAUUUUGUUUAUUUUUUUCGCUCAUUUCCAGGGGUGGGAAUUUUUUUUUAAUAUGUGUCAUGAAUAAAGUUGUUUUUGAAAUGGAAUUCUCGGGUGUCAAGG	0.102
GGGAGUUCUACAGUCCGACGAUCCAAGUCCUGUGCUACACAUCGUAUGUACCGAAUCGGUUUGGGGUUUGGGUUUGGGAAAGUAUUAUGUUACGCCGUUCGGAUCUGCACUUCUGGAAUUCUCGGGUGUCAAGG	-1.01
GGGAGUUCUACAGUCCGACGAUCAAGUCCUGUGCUACACAUCGUAUGUACCGAAUCGGAAAAAAAGGAAAAAGGUUUGGAAAGUAUUAUGUUACGCCGUUCGGAUCUGCACUUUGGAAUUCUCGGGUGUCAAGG	-2.72
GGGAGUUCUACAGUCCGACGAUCACCAUGCAGGUGGGCAUCUUUGGGAAGUGGGGCAAGGGGGGGAUGGGGAGGGGGGUAACACUUUGGGAACAGGUGGUCCCAGGUCGUUUCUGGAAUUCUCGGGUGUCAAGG	0.0543
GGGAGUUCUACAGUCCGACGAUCUCCUCAAGUCCUGUGCUACACAUCGUAUGUACCGAAUCGGGCGGCGGGCGGAAAGUAUUAUGUUACGCCGUUCGGAUCUGCACUUCCAGCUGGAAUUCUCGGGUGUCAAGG	0.779
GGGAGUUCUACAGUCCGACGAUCUCAAGUCCUGUGCUACACAUCGUAUGUACCGAAUCGGGCCGGGCCGGGCCGGGGAAAGUAUUAUGUUACGCCGUUCGGAUCUGCACUUCCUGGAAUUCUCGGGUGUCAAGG	0.566

Series 4 — technique: RNA Bind-n-Seq; molecule type: RNA; sample: in vitro; tested at: not given; relative to: input RNA pool; direction: higher = stronger binding
Target: RING finger protein unkempt homolog, zinc fingers 1-6, GST-SBP tag (UNK, Homo sapiens, UniProt Q9C0B0, residues 30-357)
Setting: RNA with constant flanks, human-mouse chimeric sites, ends assumed
Residues (chain): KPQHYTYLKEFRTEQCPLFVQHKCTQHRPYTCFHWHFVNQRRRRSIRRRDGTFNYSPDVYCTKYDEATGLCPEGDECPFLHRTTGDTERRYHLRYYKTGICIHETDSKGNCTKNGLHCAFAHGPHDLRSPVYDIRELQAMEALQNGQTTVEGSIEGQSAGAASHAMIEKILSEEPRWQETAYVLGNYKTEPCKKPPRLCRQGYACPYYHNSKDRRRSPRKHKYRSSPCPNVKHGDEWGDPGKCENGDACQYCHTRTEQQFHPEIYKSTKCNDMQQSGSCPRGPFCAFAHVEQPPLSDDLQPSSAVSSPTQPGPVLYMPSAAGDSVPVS
Strand	bound/input enrichment
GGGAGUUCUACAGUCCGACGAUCCCCUCCCCGGGCCACCCACCCCUCCCGCUCCCAGCGGGAGAUCCAGGUUUCUUCUGUUUUCAUAGCAAAUAAGAAAAAUGUUCUACGCACAUUUUGUCCUCAGUAAACGAGGGCCUCUGGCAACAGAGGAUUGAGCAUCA	0.827 ratio
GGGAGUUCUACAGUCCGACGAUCUGUAGUUGAUCCCCUGCUCAUUUUUCUCUUUUCUUUCUUUCCUUUAGGAAAAGCCUAAAGAUUAGACUGUAAGAAAAACAGAAGCCAUGUUUCGAAGACCUGUGUUACAGGUAUUUCGUCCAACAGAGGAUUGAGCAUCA	0.0322 ratio
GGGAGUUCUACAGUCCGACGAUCAGAAAGCAAAACUUGGAACGAUUUAAGAAAGGAGACGUAAGAUUCUUGAUUUGCACAGAUGUAGCUGCUAGAGGGAUUGAUAUCCAUGGUGUUCCUUAUGUGAUCAACGUCACCCUGCCUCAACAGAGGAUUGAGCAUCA	0.278 ratio
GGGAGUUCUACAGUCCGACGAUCUUAAUCCCCUUUACUGCUCCCCCACUUCUCAUGGUAAUAACAAAGUCUUAUAUCCCCAUAUUAGCUUUCACUCAGAUGGCUUAUGGAGCCGGUUUCCUAGCUUUCUUGGGUGGGAUCAGACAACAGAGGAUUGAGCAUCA	0.455 ratio
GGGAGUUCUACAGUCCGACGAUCAAUUUCCUGUCAUACUUUUUAGACAUUGCCAUAGGUAUUACAGAGCACCUGGCCACAUUCUAGUUUUGUGUUAUUUCUCAGCUAUGGAUAUGAUCAAAUGAGAACACUGCUUAACUAAUGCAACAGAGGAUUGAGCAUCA	1.14 ratio
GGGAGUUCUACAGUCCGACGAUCUCUGGUCACACUCGUGUGUAUGGUGUUUGCUUUGUUGAUACUUCACUGGGCAAGUUUUUCAUCGGCCAGUUUUCGGAUGACCGCCACUGUUCCAGAUUUAGGACGCUAGUGGCUCACUAUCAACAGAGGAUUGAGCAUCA	0.265 ratio
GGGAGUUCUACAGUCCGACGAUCAAAUCGUGUGUGUCCAAUAUUGAAAGUGCUUUAUCUACACUCCAAUAUGUAAGCAGCAUAGUAGUUUCUUUAGAGAAUAGGUCAGCCAUUGUAAAGUACAAUGCAAGCUUAGUCACUCCACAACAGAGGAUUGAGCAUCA	10.2 ratio
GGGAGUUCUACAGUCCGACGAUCCAGUCCCGCGACAGCGUGGGACAAUGUUGUGAACAAAAACUCAAAGCGGACCCUCUAUUGUAGUUCUUGAUUCUCGAAAUGUGCUAUUAUUGUUUGUCUUUUUUUUUUUUUUUUUAAAGACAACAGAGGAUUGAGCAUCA	0.993 ratio
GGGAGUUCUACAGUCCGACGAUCGUUGCCAGCUUCCGGUUCCGUUGGGCUAGCAAGCUCCAGUGCUACGUUGUCUCUACGCUCUCAAUCCGCCAUCCAACAAACAUGGAUCAGGUAAUGCAGUUUGUGGAGCCCAGCCGGCAGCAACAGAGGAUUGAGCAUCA	0.136 ratio
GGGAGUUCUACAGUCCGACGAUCAACUUCGUGCAUCGGUUUCCCUUUGUAGCUGUUUCAAUUGGCUUCCUUGUGAAUAAAGAGAUGGAGUUUGGAGUUGUGUACAGCUGUGUGGAAGGCAAGAUGUACACCGGCAGGAAAGGGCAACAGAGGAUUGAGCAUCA	0.309 ratio
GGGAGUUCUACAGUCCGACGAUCUCAACAGACAACAUCAAAUACCAGCCUAAAGGGGGGCAGGUACAAAUUGUUACCAAGAAAAUAGACCUAAGCCAUGUGACAUCCAAAUGUGGCUCUCUAAAGAACAUCCGCCACAGGCCACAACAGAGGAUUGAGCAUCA	0.746 ratio

Excerpt of the above (series 2):
Modification	mean fluorescence intensity [a.u.]
2'F-ANA at 2 3 4 6 8 9 11 12 14	257
2'F-ANA at 1 4 5 7 8 11 13 14	44.4
2'F-ANA at 1 2 3 4 8 9 15	190
2'F-ANA at 3 7 10 11 12 13 14 15	449
2'F-ANA at 1 3 7 9 12 13 14 15	110
2'F-ANA at 1 8 9 10 12 15	72.7
2'F-ANA at 1 4 5 7 8 15	67.3
